Results collected from several papers.
Every numbered part comes from another study and shows a few of its results, in no order. Substitutions count along the parent as printed.

Series 1
Target: Ras GTPase-activating protein-binding protein 1, full length (G3BP1, Homo sapiens, UniProt Q13283)
Chain of UniProt Q13283 (whole entry, looked up): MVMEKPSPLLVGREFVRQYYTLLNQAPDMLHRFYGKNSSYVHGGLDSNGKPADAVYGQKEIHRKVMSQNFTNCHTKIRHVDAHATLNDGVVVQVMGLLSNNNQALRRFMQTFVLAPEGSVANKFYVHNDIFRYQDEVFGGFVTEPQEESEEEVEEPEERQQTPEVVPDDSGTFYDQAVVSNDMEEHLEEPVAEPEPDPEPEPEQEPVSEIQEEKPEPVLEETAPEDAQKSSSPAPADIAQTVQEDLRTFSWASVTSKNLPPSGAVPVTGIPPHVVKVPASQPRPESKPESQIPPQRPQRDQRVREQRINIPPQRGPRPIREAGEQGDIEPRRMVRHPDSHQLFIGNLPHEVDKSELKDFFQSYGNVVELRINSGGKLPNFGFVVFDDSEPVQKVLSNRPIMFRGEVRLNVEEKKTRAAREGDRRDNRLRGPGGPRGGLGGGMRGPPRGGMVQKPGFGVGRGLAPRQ
Technique: RNA Bind-n-Seq
Form: RNA
Medium: in vitro
Concentration: 200 nM
Setting: whole 134-nt RNA, ends assumed
With: 150 mM KCl
Relative to: input library
Direction: higher = stronger binding
Quantity: log2 enrichment
Shared flanks, not repeated: GGGAGUUCUACAGUCCGACGAUC … UGGAAUUCUCGGGUGUCAAGG
AGUCCUGUGCUACACAUCGUAUGUACCGAAUCGGGAGGGUUUUUGGGAAAAAAAGGGAAAGUAUUAUGUUACGCCGUUCGGAUCUGCACU: -0.348
UUCUUGCCAGAGACGAAGAAGCGCAAGAAACGCAAGUCAGAGGAUGGCACGCCAGCGGAGGAUGGCACACCUGCAGCCACCGGCGGGAGC: -1.18
CCUGUGCUACACAUCGUAUGUACCGAAUCGGGGUUUUUUUGGGGAAAGGGGAAAAAGGGGAAAGUAUUAUGUUACGCCGUUCGGAUCUGC: 0.194
CAAGUCCUGUGCUACACAUCGUAUGUACCGAAUCGGUGGUUUUUUUGGUUUUUGGAAAGUAUUAUGUUACGCCGUUCGGAUCUGCACUUC: -0.945
AGUCCUGUGCUACACAUCGUAUGUACCGAAUCGGAAAAAGGGAAAAAGGGAAAAAGGAAAGUAUUAUGUUACGCCGUUCGGAUCUGCACU: -1.06
GUCCUGUGCUACACAUCGUAUGUACCGAAUCGGGGUUUUUUUGGGGAAAGGGGUGGGGAAAGUAUUAUGUUACGCCGUUCGGAUCUGCAC: 0.0617
UGGCCCUGGUGCCAUGCGGGGAGGAAGAGGUGGCCUCAUGGAUCGUGGUGGUCCCGGUGGAAUGUUCAGAGGUGGCCGUGGUGGAGACAG: 0.527
AAGUCCUGUGCUACACAUCGUAUGUACCGAAUCGGGAGGGUUUGGGAAAAAAAGGGAAAGUAUUAUGUUACGCCGUUCGGAUCUGCACUU: -0.0595
CACAGACAACACGCACCCACACAGACACAGAGGGAAGGGGUUGGGAUGGGGACAGGGGGCACAGCAGGGCGGGGUAGGACCCCAGCCCCU: 1.61

Series 2
Target: ABI1, truncated, D143A, DHFR fusion (Arabidopsis thaliana)
Technique: DHFR PCA, deep sequencing
Medium: yeast
Setting: methotrexate growth selection, single substitutions
With: (+)-ABA 0.0091 µM
Relative to: wild-type fitted maximum
Direction: higher = stronger binding
Quantity: relative binding score
Starting sequence: PYL1, truncated, DHFR fusion (Arabidopsis thaliana); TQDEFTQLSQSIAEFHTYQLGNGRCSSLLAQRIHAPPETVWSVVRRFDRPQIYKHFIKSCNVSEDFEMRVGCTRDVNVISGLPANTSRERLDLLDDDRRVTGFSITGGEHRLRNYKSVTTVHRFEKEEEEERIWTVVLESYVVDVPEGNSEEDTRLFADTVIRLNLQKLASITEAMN
A35W: -3.1%
S117K: -5.84%
R163P: 0.0336%
L94F: 38.1%
V142T: 4.51%
R99Q: 18.8%
F47Y: 15.5%
E147V: 10.7%
L94P: -8.14%
L156T: 12.4%
R90V: 8.65%
K58N: 3.97%
H55Q: 27.4%
F56Y: -8.31%
D92A: -2.99%
E174R: -0.809%
Q7N: 10.7%
E130V: 24.2%

Series 3
Target: CCNB3, cyclin fold, Cln2 fusion (human)
Technique: yeast growth competition, sequencing
Medium: yeast
Setting: weak parent motif
Relative to: not given
Direction: higher = stronger binding
Quantity: normalised enrichment score
Starting sequence: ITGB3BP docking peptide (human); MPVKRSLKLDGLL
MPVKRALKLDGLL [S6A]: 0.525
MPVKRSLKLAGLL [D10A]: -0.104
MPVKRSLKLDALL [G11A]: 0.243
MAVKRSLKLDGLL [P2A]: 0.232
MPVKASAKLDGLL [R5A L7A]: 0.0109
MPVKRSLKLDGLA [L13A]: 0.502
MPVKASLKLDGLL [R5A]: 0.041
MPVARSLKLDGLL [K4A]: 0.385
MPVKKSLKFDGLL [R5K L9F]: 0.502
MPVKRSLKFDGLL [L9F]: 1

Single results of other studies
PhoQ, residues 284 288 289 292 302 303 SIHLQL
fold induction (PhoP, residues 12 14 15 18 19 AQCLL (Escherichia coli, UniProt P23836); Sort-seq, measured: YFP reporter; E. coli; PhoQ-PhoP variant library, with: 10 µM Mg2+; relative to: high Mg2+ state, higher = stronger signaling): 1.19

Some of these lines once more (series 2):
F47Y: 15.5%
E130V: 24.2%
V142T: 4.51%
Q7N: 10.7%
L156T: 12.4%
